Assay results pooled from the literature.
Lines come from different studies, so protocols differ. ± gives the spread as reported.

C=CC(=O)Nc1cc(Nc2nccc(-c3cn(C)c4ccccc34)n2)c(OC)cc1N(C)CCN(C)C gave a recovery of 73.1% (storage stability; human dried blood spot; 10 d, on ice, HQC level).
CCO[C@H]1CCN(Cc2c(OC)cc(C)c3[nH]ccc23)[C@H](c2ccc(C(=O)O)cc2)C1 has an unbound Cmax of 1070 ng/mL (human mild hepatic impairment, plasma; oral, 200 mg single dose, mean).
With CCCCCCCOc1ccc(CCC(N)(CO)CO)cc1C(F)(F)F.Cl the renal clearance was 0.113 mL/min (healthy men; oral, 0.25 mg, day 21).
CNCc1ccc(-c2[nH]c3cc(F)cc4c3c2CCNC4=O)cc1: “malignant neoplasm progression incidence” 12.5% (human patients; oral, 360 mg twice daily, all grades).
COc1ccc2nc(-c3cc(N(C)C)ccn3)c(Nc3ccc(F)cc3)n2c1 has a CC50 of 7.94 µM (peritoneal macrophages, Swiss mice; 5 days, 5% fetal calf serum).
CC(C)(C(=O)N1CCOc2c(C#N)cncc2C1)C(F)F — result for “subjects with adverse event”: 0% (refers to: conjunctival hyperaemia; human; oral, 15 mg twice daily, 14 days, multiple ascending dose).
With COc1ccnc(C(=O)NC(CO)C(=O)O)c1O (racemic) the DT50 was 0.64 days (aerobic dark soil incubation; sandy loam soil; 20 °C, persistence endpoint).
COc1ccc2c(=O)n(C)c(-c3ccccc3)nc2c1 has a tissue/plasma ratio of 10.2 (Sprague-Dawley rat, male, large intestine; oral, 30 mg/kg, 0.5 h; reference: large intestine over plasma).
Cc1cc(-c2nnc(N)nc2-c2ccc(F)cc2)cc(Cl)n1: “patients with immune-mediated AE” 0% (refers to: Colitis; IO-naive mCRPC patients, male; oral, dose not given, treatment-related, grade 2).
The tissue/plasma ratio of CN1CCN(C(=O)c2ccc3cc(CCNc4ccnc5ccc(C#N)cc45)ccc3c2)CC1 is reported as about 20 (female BALB/c mouse, CT26 tumour, tumour and blood; intravenous, 2.5 mg/kg; reference: tumour over blood).
Cc1nc(-c2ccc(OCC(C)C)c(C#N)c2)sc1C(=O)O: “participants with AEs grade 1 or above” 12.8% (healthy Chinese subjects; oral, 40 mg single, fasting).
For O=C(N[C@H](Cc1c[nH]c2ccccc12)C(=O)Nc1ccncc1)c1ccc(-c2cc(C(F)(F)F)ccc2F)cc1F, the concentration was 53.8 µM (Swiss Webster mouse, female, intestine; oral, 50 mg/kg, 8 h, 20% Kolliphor vehicle).
The AUC(0-t) of CSc1ccccc1C(=O)NCCn1cc(C(=O)NCc2cccc(C)n2)c(=O)c2cc3c(cc21)OC(F)(F)O3 is reported as 94.9 ± 46.2 ng·h/mL (Sprague-Dawley rat, male, whole blood; intramuscular, 10 mg/kg of parent compound).
Under “nausea TEAE incidence”, COc1ccc([C@@H](O)c2cc(-c3ncnc4cc(N5CCOCC5)ccc34)c(F)cc2Cl)nn1 is recorded as 67% (locally advanced rectal cancer patients; 100 mg, added: capecitabine and radiotherapy).
CCn1c(=O)c(-c2cc(NC(=O)Nc3ccccc3)c(F)cc2Br)cc2cnc(NC)cc21 — result for “participants with grade ≥ 3 TEAE”: 0% (refers to: investigations; healthy human, matched to moderate hepatic impairment; oral, 50 mg single dose).
CC(C)n1c(Nc2cccnc2)nc2cnc(Nc3ccc(N4CCN(C)CC4)cc3)nc21 — result for “subjects with adverse event”: 0% (refers to: nausea; healthy male subjects; oral, 150 mg, study, added: rifampin).
For COc1cc2nccc(Oc3ccc(NC(=O)c4cc5c(n(-c6ccccc6)c4=O)CCCC5=O)nc3)c2cc1OC, “patients with sinus tachycardia” read 10% (human, relapsed/refractory AML; oral, dose not given, grade ≥3, any causality, all doses).
Cc1ccc([C@@H]2O[C@H](CO)[C@@H](O)[C@H](O)[C@H]2O)cc1Cc1ccc(-c2ccc(F)cc2)s1: “urinary sodium excretion change” -40.7 mEq (Japanese type 2 diabetes patients; 25 mg, day 2, 24 h urine collection; reference: baseline).
